Results from different studies.
Protocols differ between the studies behind these lines. Numbers after ± are the reported error.

| Compound | tested on | test | system | setting | scale | measurement | result |
| --- | --- | --- | --- | --- | --- | --- | --- |
| O=C(N/N=C/c1ccc2c(ccc[n+]2Cc2ccccc2)c1)c1cccc(C(=O)N/N=C/c2ccc3c(ccc[n+]3Cc3ccccc3)c2)n1 | myc22 MYC G4-DNA parallel | FRET melting |  | 1 µM, K1 buffer, DNA 0.2 µM, with: ds26 10 µM |  | ΔTm | 16.1 ± 0.2 °C |
| Cc1ncsc1-c1ccc(C(C)NC(=O)C2CC(O)CN2C(=O)C(NC(=O)CCCCCCCCCCN2CCCC(Nc3ncc(Cl)c(Nc4ccccc4S(=O)(=O)C(C)C)n3)C2)C(C)(C)C)cc1 (stereo not drawn) | 22Rv1 | RNA-seq, measured: ZNF737 mRNA |  | concentration not given | baseline: DMSO | log2 fold change | -1.33 |
| COc1cc(O)ccc1CCC(c1ccc(O)cc1)c1cc2c(c(C)c1O)OC(c1ccc(O)cc1)CC2 (mixture of isomers) |  | measured: arachidonic acid | human whole blood | 30 µM, with: Escherichia coli |  | amount | 398000 ± 23600 pg/mL blood |
| COC1CN([C@H]2CC[C@H]([C@@]3(C)Oc4c(Cl)cc(C(=O)NCc5c(SC)cc(C)[nH]c5=O)c(C)c4O3)CC2)C1 |  | RNA-seq, measured: KIF3C | human, whole blood | dose not given, 24 h | baseline: pretreatment baseline | log2 fold change | 1.15 |
| C[n+]1ccc(/C=N/NC(=O)C(=O)N/N=C/c2cc[n+](C)cc2)cc1 | myc22 MYC G4-DNA parallel | FRET melting |  | 1 µM, K1 buffer, DNA 0.2 µM |  | ΔTm | 3.6 ± 0.3 °C |
| CNS(=O)(=O)Nc1nccc(Cc2c(C)c3ccc(Oc4ncccc4F)cc3oc2=O)c1F | NCI-H1793 | cell viability |  | 7 days |  | IC50 | > 1000 nM |
| CN1CCCNC(=O)c2cccc(c2)C(=O)NCCCN(C)CCCNc2cccc3c2C(=O)c2cccc(c2C3=O)NCCC1 | SAS | RNA-Seq, measured: ZFYVE27 mRNA |  | 5 µM, 6 h | baseline: untreated cells | log2 fold change | -2.84 |
| C=CC(=O)Nc1cccc(Cn2ncc3cnc(Nc4cnn(CCOC)c4)nc32)c1 | human ABL1(Q252H)-nonphosphorylated | KINOMEscan |  | 100 nM | baseline: control | binding | 14% |
| O=C(N/N=C/c1cc[n+](CC2CC2)c2ccccc12)c1cc(C(=O)N/N=C/c2cc[n+](CC3CC3)c3ccccc23)ncn1 | myc22 MYC G4-DNA parallel | FRET melting |  | 1 µM, K1 buffer, DNA 0.2 µM |  | ΔTm | 6.1 °C |
| Nc1ncc(-c2cc(-c3cnn(CC(F)(F)F)c3)ncc2F)nc1C(=O)NC1CNCC(F)C1 (stereo not drawn) | AKT2 | KINOMEscan |  | 1 µM | baseline: DMSO control | remaining binding | 98% |
| C[n+]1cc(/C=N/NC(=O)N/N=C/c2cc3ccccc3[n+](C)c2)cc2ccccc21 | myc22 MYC G4-DNA parallel | FRET melting |  | 1 µM, K1 buffer, DNA 0.2 µM, with: ds26 10 µM |  | ΔTm | 3.8 ± 0.1 °C |
| C=C(NC(=O)c1csc(-c2nc3c(cc2O)-c2nc(cs2)C(=O)NC(C(C)O)C(=O)NC(=C(C)OC)c2nc(cs2)C(=O)NC2c4nc(cs4)C(=O)NC(COC(=O)c4c5c6c(cccc6n4O)COC(=O)C(OC4CC(C)(O)C(N(C)C)C(C)O4)C2OC5)c2nc-3cs2)n1)C(N)=O (stereo not drawn) | Streptococcus pneumoniae |  | -4, immunocompromised mice, lung infection | tid dosing |  | ED50 | 6.17 mg/kg |
